Measured values from different studies.
A part holds a random share of what one study measured.
Sequence of UniProt P41743 (whole entry, looked up): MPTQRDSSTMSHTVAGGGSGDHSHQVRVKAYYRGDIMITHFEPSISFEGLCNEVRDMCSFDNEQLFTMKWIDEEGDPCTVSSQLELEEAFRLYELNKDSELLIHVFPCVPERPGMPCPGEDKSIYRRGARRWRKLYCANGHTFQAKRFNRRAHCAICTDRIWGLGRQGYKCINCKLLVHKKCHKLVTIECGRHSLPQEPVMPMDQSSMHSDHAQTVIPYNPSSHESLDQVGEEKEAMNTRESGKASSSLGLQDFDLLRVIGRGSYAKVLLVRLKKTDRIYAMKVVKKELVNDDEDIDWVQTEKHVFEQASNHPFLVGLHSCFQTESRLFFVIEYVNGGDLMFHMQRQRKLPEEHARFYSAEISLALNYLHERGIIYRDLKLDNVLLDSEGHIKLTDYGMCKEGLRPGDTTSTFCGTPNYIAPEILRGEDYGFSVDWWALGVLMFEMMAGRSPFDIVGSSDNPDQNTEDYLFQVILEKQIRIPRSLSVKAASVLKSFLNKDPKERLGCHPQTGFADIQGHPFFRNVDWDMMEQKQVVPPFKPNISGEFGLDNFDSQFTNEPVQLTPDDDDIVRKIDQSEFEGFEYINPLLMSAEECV
Sequence of UniProt Q15208 (whole entry, looked up): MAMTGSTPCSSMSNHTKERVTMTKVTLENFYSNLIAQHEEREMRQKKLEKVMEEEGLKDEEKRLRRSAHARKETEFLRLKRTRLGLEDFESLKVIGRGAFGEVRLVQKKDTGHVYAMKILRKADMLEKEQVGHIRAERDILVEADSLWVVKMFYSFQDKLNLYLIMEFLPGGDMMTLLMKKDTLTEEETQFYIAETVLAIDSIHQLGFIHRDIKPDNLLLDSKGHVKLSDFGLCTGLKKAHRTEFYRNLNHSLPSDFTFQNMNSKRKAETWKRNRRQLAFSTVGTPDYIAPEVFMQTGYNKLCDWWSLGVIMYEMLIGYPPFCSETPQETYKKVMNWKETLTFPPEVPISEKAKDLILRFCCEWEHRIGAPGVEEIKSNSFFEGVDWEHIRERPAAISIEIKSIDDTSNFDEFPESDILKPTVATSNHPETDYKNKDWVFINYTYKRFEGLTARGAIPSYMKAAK
Sequence of UniProt P57059 (whole entry, looked up): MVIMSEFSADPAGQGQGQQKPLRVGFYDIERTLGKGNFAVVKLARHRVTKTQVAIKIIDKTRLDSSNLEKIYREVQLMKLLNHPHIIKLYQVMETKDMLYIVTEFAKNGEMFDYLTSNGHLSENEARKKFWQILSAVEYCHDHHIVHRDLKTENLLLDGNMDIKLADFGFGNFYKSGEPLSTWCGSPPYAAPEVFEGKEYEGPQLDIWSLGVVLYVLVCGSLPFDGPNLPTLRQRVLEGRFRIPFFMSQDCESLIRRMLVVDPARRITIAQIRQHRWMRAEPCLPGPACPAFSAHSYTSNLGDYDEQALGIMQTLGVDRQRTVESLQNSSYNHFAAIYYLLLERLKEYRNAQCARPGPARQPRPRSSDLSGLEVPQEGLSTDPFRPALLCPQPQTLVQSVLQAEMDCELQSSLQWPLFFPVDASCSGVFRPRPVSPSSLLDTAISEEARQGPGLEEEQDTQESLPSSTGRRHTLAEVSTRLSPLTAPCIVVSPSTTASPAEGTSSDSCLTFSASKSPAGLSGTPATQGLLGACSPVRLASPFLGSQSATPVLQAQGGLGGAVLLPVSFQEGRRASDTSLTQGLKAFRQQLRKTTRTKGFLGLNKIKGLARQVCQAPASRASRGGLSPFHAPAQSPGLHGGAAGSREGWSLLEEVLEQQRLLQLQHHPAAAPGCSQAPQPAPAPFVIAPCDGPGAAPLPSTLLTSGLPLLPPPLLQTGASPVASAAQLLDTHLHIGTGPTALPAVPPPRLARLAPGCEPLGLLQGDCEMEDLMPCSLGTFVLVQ
Sequence of UniProt Q12851 (whole entry, looked up): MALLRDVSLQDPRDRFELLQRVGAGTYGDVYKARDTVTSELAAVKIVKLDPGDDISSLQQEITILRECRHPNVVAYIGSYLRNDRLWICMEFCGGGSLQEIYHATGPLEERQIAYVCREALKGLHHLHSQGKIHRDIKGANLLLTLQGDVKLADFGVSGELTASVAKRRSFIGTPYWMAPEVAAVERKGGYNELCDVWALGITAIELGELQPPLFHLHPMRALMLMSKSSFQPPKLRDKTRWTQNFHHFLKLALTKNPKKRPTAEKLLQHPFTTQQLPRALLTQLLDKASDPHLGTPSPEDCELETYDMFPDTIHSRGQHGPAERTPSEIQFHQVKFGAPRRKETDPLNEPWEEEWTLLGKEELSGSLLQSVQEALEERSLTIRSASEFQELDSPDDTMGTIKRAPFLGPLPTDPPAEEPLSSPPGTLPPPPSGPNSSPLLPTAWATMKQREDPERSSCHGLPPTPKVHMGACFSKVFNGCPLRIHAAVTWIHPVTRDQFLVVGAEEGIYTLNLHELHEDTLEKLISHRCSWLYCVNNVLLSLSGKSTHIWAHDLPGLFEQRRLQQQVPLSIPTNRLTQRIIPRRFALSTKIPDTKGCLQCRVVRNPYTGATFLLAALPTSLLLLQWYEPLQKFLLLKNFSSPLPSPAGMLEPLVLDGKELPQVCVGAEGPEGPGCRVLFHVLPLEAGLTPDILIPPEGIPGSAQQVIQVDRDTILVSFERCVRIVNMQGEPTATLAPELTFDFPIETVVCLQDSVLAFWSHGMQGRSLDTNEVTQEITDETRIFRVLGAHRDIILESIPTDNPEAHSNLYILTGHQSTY
Sequence of UniProt O75582 (whole entry, looked up): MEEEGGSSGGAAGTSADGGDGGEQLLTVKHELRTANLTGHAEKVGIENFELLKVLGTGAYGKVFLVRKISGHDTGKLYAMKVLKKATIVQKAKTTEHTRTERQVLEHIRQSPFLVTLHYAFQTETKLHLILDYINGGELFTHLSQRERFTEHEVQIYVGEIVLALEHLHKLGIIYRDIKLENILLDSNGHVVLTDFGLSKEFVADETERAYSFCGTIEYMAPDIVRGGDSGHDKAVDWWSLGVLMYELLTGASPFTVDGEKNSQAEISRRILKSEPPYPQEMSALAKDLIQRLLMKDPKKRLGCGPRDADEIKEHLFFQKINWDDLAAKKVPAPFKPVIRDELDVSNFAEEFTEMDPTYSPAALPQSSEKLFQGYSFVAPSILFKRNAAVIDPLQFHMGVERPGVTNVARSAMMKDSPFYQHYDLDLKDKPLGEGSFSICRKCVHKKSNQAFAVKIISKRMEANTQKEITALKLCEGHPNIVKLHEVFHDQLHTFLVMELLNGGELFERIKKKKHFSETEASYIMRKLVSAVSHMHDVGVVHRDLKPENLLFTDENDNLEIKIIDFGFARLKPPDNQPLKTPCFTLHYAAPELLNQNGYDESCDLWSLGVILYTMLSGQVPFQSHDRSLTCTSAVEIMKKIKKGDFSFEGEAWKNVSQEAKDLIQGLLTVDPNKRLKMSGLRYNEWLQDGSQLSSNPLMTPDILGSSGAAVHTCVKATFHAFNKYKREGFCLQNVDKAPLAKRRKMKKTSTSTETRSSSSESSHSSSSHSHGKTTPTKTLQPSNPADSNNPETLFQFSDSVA

Study 1
Target: Dual specificity tyrosine-phosphorylation-regulated kinase 3 (DYRK3, Homo sapiens, UniProt O43781)
Sequence of UniProt O43781 (whole entry, looked up): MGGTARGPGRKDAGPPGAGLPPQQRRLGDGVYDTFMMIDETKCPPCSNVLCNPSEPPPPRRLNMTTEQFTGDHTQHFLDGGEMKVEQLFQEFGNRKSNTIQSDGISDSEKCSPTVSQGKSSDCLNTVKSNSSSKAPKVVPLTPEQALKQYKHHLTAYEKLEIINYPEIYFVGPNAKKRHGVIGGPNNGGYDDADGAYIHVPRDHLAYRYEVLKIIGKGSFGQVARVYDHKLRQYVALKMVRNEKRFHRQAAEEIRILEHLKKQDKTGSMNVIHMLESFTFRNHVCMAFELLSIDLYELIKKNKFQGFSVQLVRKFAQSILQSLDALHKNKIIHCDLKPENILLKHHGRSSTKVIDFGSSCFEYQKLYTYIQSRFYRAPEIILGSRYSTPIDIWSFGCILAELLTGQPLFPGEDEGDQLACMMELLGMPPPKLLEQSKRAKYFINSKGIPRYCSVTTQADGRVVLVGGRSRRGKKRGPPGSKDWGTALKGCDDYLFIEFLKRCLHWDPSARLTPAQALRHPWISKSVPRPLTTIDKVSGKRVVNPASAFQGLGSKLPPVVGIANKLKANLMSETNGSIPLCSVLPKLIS
Observed: enzyme activity
Action: inhibitor
Concentration: 0.5 µM
Relative to: control
Endpoint: remaining activity
CN(C)CCCn1cc(C2=C(c3c[nH]c4ccccc34)C(=O)NC2=O)c2ccccc21: 97.9%
CC(=O)O/N=C1/C(c2c(O)[nH]c3cc(Br)ccc23)=Nc2ccccc21: 91.3%
Cc1ccc(NC(=O)c2ccc(CN3CCN(C)CC3)cc2)cc1Nc1nccc(-c2cccnc2)n1: 96.4%
Nc1[nH]nc2nnc(-c3c(-c4ccccc4)nn4ccccc34)cc12: 99.8%
O=c1cc(N2CCOCC2)oc2c1ccc1ccccc12: 96%
CS(=O)(=O)CCNCc1ccc(-c2ccc3ncnc(Nc4ccc(OCc5cccc(F)c5)c(Cl)c4)c3c2)o1: 90.2%
O=C1NC(=O)/C(=C/c2ccc3nccnc3c2)S1: 71.5%
COc1ccc(Cl)cc1NC(=O)Nc1cc(C)nc2ccccc12: 106%
COc1cc2ncc(-c3ccccc3)nc2cc1OC: 95.4%
O=C(Nc1ccc(Cl)cc1)c1ccccc1NCc1ccncc1: 104%
COc1ccc(-c2cnc3c(-c4ccsc4)cnn3c2)cc1: 89.9%
CCC(=O)Nc1ccc2ncnc(Nc3cccc(Br)c3)c2c1: 92.3%
CC(C)[C@H](CO)Nc1nc(Nc2cccc(Cl)c2)c2ncn(C(C)C)c2n1: 105%
COc1cc2ncnc(N3CCN(C(=O)Nc4ccc(Oc5ccccc5)cc4)CC3)c2cc1OC: 86.3%
C[S+]([O-])c1ccc(-c2nc(-c3ccncc3)c(-c3ccc(F)cc3)[nH]2)cc1 (stereo not shown): 99%
CC(C)c1nn(-c2c(Cl)cccc2Cl)c2nc(Cc3ccc(OCCO)cc3)[nH]c(=O)c12: 99%
Cn1cnc2cc3c(Nc4cccc(Br)c4)ncnc3cc21: 102%
Cn1cc(/C=C2\C(=O)Nc3ccc(S(N)(=O)=O)cc32)c2ccccc21: 89.7%
Cc1nc(Nc2ncc(C(=O)Nc3c(C)cccc3Cl)s2)cc(N2CCN(CCO)CC2)n1: 109%

Study 2
Compound: COCCOc1nc(-c2ccc(Cl)nc2)nc2c1CN(C(=O)c1ncn3ccccc13)CC2
Concentration: 0.1 µM
Endpoint: remaining binding
GRK2 (Homo sapiens, UniProt P25098); cell-free assay, competition with immobilised ligand: 100%
Myosin-IIIa (MYO3A, Homo sapiens, UniProt Q8NEV4); cell-free assay, competition with immobilised ligand: 100%
Myosin-IIIb (MYO3B, Homo sapiens, UniProt Q8WXR4); cell-free assay, competition with immobilised ligand: 67%
ERBB3 (Homo sapiens, UniProt P21860); cell-free assay, competition with immobilised ligand: 65%
Ribosomal protein S6 kinase alpha-5, C-terminal kinase domain (RPS6KA5, Homo sapiens, UniProt O75582); cell-free assay, competition with immobilised ligand: 100%
SIK1 (Homo sapiens, UniProt P57059); competition binding: 100%
STK38 (Homo sapiens, UniProt Q15208); cell-free assay, competition with immobilised ligand: 100%
HIPK3 (Homo sapiens, UniProt Q9H422); cell-free assay, competition with immobilised ligand: 100%
ERBB2 (Homo sapiens, UniProt P04626); cell-free assay, competition with immobilised ligand: 82%
EPHA4 (Homo sapiens, UniProt P54764); cell-free assay, competition with immobilised ligand: 100%
WEE1 (Homo sapiens, UniProt P30291); cell-free assay, competition with immobilised ligand: 100%
STK17B (Homo sapiens, UniProt O94768); cell-free assay, competition with immobilised ligand: 62%
FER (Homo sapiens, UniProt P16591); cell-free assay, competition with immobilised ligand: 100%
DYRK1B (Homo sapiens, UniProt Q9Y463); cell-free assay, competition with immobilised ligand: 83%
MAP4K2 (Homo sapiens, UniProt Q12851); cell-free assay, competition with immobilised ligand: 100%
BMPR1A (Homo sapiens, UniProt P36894); cell-free assay, competition with immobilised ligand: 82%
FLT4 (Homo sapiens, UniProt P35916); cell-free assay, competition with immobilised ligand: 88%
STK32A (Homo sapiens, UniProt Q8WU08); cell-free assay, competition with immobilised ligand: 83%
Aurora kinase C (AURKC, Homo sapiens, UniProt Q9UQB9); cell-free assay, competition with immobilised ligand: 95%
PRKCI (Homo sapiens, UniProt P41743); cell-free assay, competition with immobilised ligand: 100%
PIK3CD (Homo sapiens, UniProt O00329); cell-free assay, competition with immobilised ligand: 94%
STK25 (Homo sapiens, UniProt O00506); cell-free assay, competition with immobilised ligand: 100%
SRMS (Homo sapiens, UniProt Q9H3Y6); cell-free assay, competition with immobilised ligand: 100%
MAPK1 (Homo sapiens, UniProt P28482); cell-free assay, competition with immobilised ligand: 95%
MAPK6 (Homo sapiens, UniProt Q16659); cell-free assay, competition with immobilised ligand: 100%

Study 3
SMILES: C[C@@H]1OCC2(CCN(c3cnc(Sc4ccnc(N)c4Cl)c(N)n3)CC2)[C@@H]1N
Method: immunoblot
Measured: phospho-ERK
Host: Mus musculus
Relative to: DMSO
Endpoint: ERK phosphorylation
Ba/F3 KRAS G12C; 1 µM: 43%
Ba/F3 NRAS Q61R; 1 µM: 132%
Ba/F3 NRAS G12C; 1 µM: 74%
Ba/F3 KRAS G12C; 0.1 µM: 69%
Ba/F3 KRAS Q61R; 1 µM: 102%
Ba/F3 NRAS G12C; 0.1 µM: 95%

Study 4
SMILES: C=CCc1ccc(O)c(-c2cc(CC=C)ccc2O)c1
Observed: chloride current
Endpoint: normalized current
ANO1 del476-501/R541A: Anoctamin-1 (ANO1, Homo sapiens, UniProt Q5XXA6, del476-501/R541A)
Sequence of UniProt Q5XXA6 (whole entry, unmodified, looked up): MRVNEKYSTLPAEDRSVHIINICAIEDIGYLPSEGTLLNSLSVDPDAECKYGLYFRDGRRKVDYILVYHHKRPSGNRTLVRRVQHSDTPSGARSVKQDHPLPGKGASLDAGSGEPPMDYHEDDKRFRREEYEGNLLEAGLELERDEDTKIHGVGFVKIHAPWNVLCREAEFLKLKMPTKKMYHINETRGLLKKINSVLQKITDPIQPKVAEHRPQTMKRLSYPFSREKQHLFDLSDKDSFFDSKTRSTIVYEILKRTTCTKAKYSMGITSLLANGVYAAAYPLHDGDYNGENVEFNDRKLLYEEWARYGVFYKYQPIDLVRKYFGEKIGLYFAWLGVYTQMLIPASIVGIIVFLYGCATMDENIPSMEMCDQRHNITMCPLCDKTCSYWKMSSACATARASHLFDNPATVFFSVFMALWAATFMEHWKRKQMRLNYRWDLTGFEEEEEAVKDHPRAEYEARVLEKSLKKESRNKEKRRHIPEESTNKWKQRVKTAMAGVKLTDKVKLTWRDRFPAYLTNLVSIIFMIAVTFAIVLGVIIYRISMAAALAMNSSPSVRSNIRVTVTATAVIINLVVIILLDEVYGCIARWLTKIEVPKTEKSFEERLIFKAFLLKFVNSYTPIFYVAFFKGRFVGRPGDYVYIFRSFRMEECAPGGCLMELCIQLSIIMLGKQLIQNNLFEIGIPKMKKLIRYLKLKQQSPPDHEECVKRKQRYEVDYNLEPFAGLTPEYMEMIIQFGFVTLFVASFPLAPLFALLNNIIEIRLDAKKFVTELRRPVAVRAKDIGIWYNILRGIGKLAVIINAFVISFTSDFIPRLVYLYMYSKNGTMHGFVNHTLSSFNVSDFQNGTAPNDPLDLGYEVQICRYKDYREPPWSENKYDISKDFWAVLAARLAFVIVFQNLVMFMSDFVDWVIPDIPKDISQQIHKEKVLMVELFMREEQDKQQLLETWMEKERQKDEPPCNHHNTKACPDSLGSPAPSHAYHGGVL
ANO1: Anoctamin-1 (ANO1, Homo sapiens, UniProt Q5XXA6)
TMEM16A (human) K603A/E623A; inside-out patch clamp; 30 µM, membrane voltage 20 mV: 0.0842
ANO1 del476-501/R541A; whole-cell voltage clamp; 30 µM, membrane voltage 0 mV, together with: 4 µM Ca2+ (saturating): -0.0028
Anoctamin-1 (ANO1, Homo sapiens, UniProt Q5XXA6, del476-501/K629A); inhibitor, whole-cell voltage clamp; 3 µM; relative to: untreated: 0.967
ANO1; inside-out patch clamp; 30 µM, membrane voltage 40 mV: 0.373
ANO1 del476-501/R541A; inhibitor, whole-cell voltage clamp; 30 µM, R515A mutant: 0.895
ANO1; inside-out patch clamp; 30 µM, membrane voltage 80 mV: 0.693
ANO1 del476-501/R541A; whole-cell voltage clamp; 100 µM, membrane voltage 0 mV, together with: 4 µM Ca2+ (saturating): -0.0017
Anoctamin-1 (ANO1, Homo sapiens, UniProt Q5XXA6, del476-501/E659A/K629A); inside-out patch clamp; 30 µM, membrane voltage 100 mV: 0.799

Repeated from above (study 1):
Nc1[nH]nc2nnc(-c3c(-c4ccccc4)nn4ccccc34)cc12: 99.8%
CC(=O)O/N=C1/C(c2c(O)[nH]c3cc(Br)ccc23)=Nc2ccccc21: 91.3%
CCC(=O)Nc1ccc2ncnc(Nc3cccc(Br)c3)c2c1: 92.3%
COc1ccc(Cl)cc1NC(=O)Nc1cc(C)nc2ccccc12: 106%
Cn1cnc2cc3c(Nc4cccc(Br)c4)ncnc3cc21: 102%
Cn1cc(/C=C2\C(=O)Nc3ccc(S(N)(=O)=O)cc32)c2ccccc21: 89.7%
C[S+]([O-])c1ccc(-c2nc(-c3ccncc3)c(-c3ccc(F)cc3)[nH]2)cc1 (stereo not shown): 99%
